Measured values from different studies.
Each line is one published result; not all experiments were run side by side. ± gives the spread as reported.

SMILES = Cl.[2H]C([2H])([2H])CC(=O)c1cnc(NC(=O)C2CC2)cc1Nc1cccc(-c2ncn(C([2H])([2H])[2H])n2)c1OC; test = geometric mean; test system = human; conditions = oral, 20 mg once daily, day 7, fasted, liquid, multiple dose; endpoint = AUC(0-tau); result = 1310 ng·h/mL
SMILES = COc1ccnc(C(=O)NCC(=O)O)c1O; test = aerobic soil incubation; test system = soil; conditions = worst-case terminal value, for exposure modelling; endpoint = DT50; result = 32.8 days
SMILES = CCN1/C(=C/C(C)=O)Sc2ccc(F)cc21; test system = cynomolgus monkey; conditions = oral, 10 mg/kg, 2 h post-dose; how to read = relative to: pre-dose; endpoint = heart rate change; result = 108 ± 20.6%
SMILES = Cc1cccc(CNC(=O)c2cn(CCNC(=O)c3ccccc3Sc3c([N+](=O)[O-])ncn3C)c3cc4c(cc3c2=O)OC(F)(F)O4)n1; test system = Sprague-Dawley rat, male, whole blood; conditions = intramuscular, 10 mg/kg of parent drug; endpoint = bioavailability; result = 34%
SMILES = CCOc1c([C@H](C)n2nc(C)c3c(N)ncnc32)cc(Cl)c(F)c1[C@@H]1CNC(=O)C1; test system = rat plasma; conditions = 800 ng/mL, three freeze-thaw cycles; how to read = relative to: nominal concentration; endpoint = stability relative error; result = -6.7%
SMILES = CCCCCN(C)CCC(O)(P(=O)(O)O)P(=O)(O)OP(=O)(O)OC[C@H]1O[C@@H](n2ccc(N)nc2=O)C(F)(F)[C@@H]1O (stereo partly shown); test system = 50% human serum; conditions = concentration not given, 37 °C; endpoint = hydrolysis rate; result = 0.02 h⁻¹
SMILES = N#Cc1ccc2c(c1)[C@H]1CCCN(C(=O)c3ccc4[nH]cnc4c3)[C@H]1C2; test system = human, plasma; conditions = oral, 20 mg once daily, day 28 steady state; endpoint = CL/F steady state; result = 45.9 mL/min
SMILES = Cc1cc(NC2CCN(C(=O)OC3CCN(C(=O)/C=C/CN(C)C)C3)CC2)n2ncc(C(C)C)c2n1 (stereo not shown); test = Phase I dose escalation CTCAE v4.0, refers to: AST increased; test system = patients with advanced solid tumours; conditions = dose not given, TIW dosing any grade; endpoint = patients with adverse event; result = 27%
SMILES = CC(=O)/N=S(\c1ccc(C(F)(F)F)cc1)C1CC1 (stereo not shown); test system = human liver microsomes; how to read = relative to: hepatic blood flow; endpoint = metabolic stability; result = < 23%
SMILES = COc1cc(C(=O)N2CCC3(CC2)CC(=O)c2c(cnn2C(C)C)C3)cc(-c2ccc(C(=O)O)cc2)n1; test = refers to: HDL cholesterol; test system = human, fasting serum; conditions = 100 mg every 12 h, day 13, adjusted geometric mean; how to read = relative to: baseline; endpoint = percentage change from baseline; result = -17.3%
SMILES = Cc1ccc([C@@H]2O[C@H](CO)[C@@H](O)[C@H](O)[C@H]2O)cc1Cc1ccc(-c2ccc(F)cc2)s1; test system = Japanese type 2 diabetes patients; conditions = 100 mg, day 6, 24 h urine collection; how to read = relative to: baseline; endpoint = urinary magnesium excretion change; result = 10.7 mg
SMILES = COc1cc2c(cc1OC)C(=O)C(CC1CCN(Cc3ccccc3)CC1)C2 (stereo not shown); test system = human subjects; conditions = unit not given; how to read = relative to: placebo; endpoint = LSEQ quality of sleep; result = 7.3
SMILES = O=C(Nc1c2c(cc3c1CCC3)CCC2)NS(=O)(=O)/C=C/c1nccs1; test system = rat liver microsomes; conditions = 1 µM, 30 min, added: NADPH; endpoint = metabolized fraction; result = 8.6%
SMILES = Nc1ncnc2c1ncn2[C@H]1C[C@@H]2OP(=O)(O)OC[C@H]3O[C@@H](n4cnc5c(N)ncnc54)C[C@@H]3OP(=O)(O)OC[C@H]2O1; test system = non-tumor-bearing mice, serum; conditions = intravenous, 1 mg/kg, toxicity study; endpoint = total bilirubin; result = 3.72 ± 1.05 µmol/L
SMILES = CNC(=O)c1ccc(-c2cnc3ncc(Cc4ccc5ncccc5c4)n3n2)cc1F; test system = Japanese patients; conditions = oral, 400 mg, grade 3/4; endpoint = Nausea dose reduction/interruption; result = 0%
SMILES = O=C(Nc1ccc(OC(F)(F)Cl)cc1)c1cnc(N2CC[C@@H](O)C2)c(-c2ccn[nH]2)c1; test system = human patients; conditions = oral, dose not given, dose-finding, any grade; how to read = relative to: records; endpoint = lipase increase incidence; result = 9.2%
SMILES = CNCc1ccc(-c2[nH]c3cc(F)cc4c3c2CCNC4=O)cc1; test system = human patients; conditions = oral, 360 mg twice daily, all grades; endpoint = headache incidence; result = 25%
SMILES = Cc1c(Cl)c(C)[n+]([O-])c(Cl)c1-c1noc(-c2cc(O)c(O)c([N+](=O)[O-])c2)n1; test = refers to: Mild severity; test system = healthy Chinese subjects; conditions = oral, 100 mg; endpoint = adverse event incidence; result = 33.3%
SMILES = CN(c1ccc(F)cc1)c1c(-c2cccc(F)n2)nc2ccccn12; test system = peritoneal macrophages, Swiss mice; conditions = 5 days, 5% fetal calf serum; endpoint = CC50; result = > 63.1 µM

Some of these lines once more:
SMILES = CCOc1c([C@H](C)n2nc(C)c3c(N)ncnc32)cc(Cl)c(F)c1[C@@H]1CNC(=O)C1; test system = rat plasma; conditions = 800 ng/mL, three freeze-thaw cycles; how to read = relative to: nominal concentration; endpoint = stability relative error; result = -6.7%
SMILES = CCCCCN(C)CCC(O)(P(=O)(O)O)P(=O)(O)OP(=O)(O)OC[C@H]1O[C@@H](n2ccc(N)nc2=O)C(F)(F)[C@@H]1O (stereo partly shown); test system = 50% human serum; conditions = concentration not given, 37 °C; endpoint = hydrolysis rate; result = 0.02 h⁻¹
SMILES = N#Cc1ccc2c(c1)[C@H]1CCCN(C(=O)c3ccc4[nH]cnc4c3)[C@H]1C2; test system = human, plasma; conditions = oral, 20 mg once daily, day 28 steady state; endpoint = CL/F steady state; result = 45.9 mL/min
